# Measurements collected from several papers.
# A part holds a random share of what one study measured.

# Set 1
# Target: Fragile X messenger ribonucleoprotein 1, C-terminal low-complexity region (Fmr1, Mus musculus, UniProt P35922)
# Technique: RNA Bind-n-Seq
# Form: RNA
# Matrix: in vitro
# Tested at: 200 nM
# Notes: whole 134-nt RNA, ends assumed
# Together with: 150 mM KCl
# Relative to: input library
# Direction: higher = stronger binding
Sequence,log2 enrichment
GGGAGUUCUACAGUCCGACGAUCAUGCACUUGACAUAGUAGCAAAUUGGUUCUGAAUUAUGCAACUGUUUGCUAUUUAGUAAACUAGCAAAUGAUGCAUGUAUUUUGUUUUUCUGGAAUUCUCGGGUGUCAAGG,-1.47
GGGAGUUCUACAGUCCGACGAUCAGUCCUGUGCUACACAUCGUAUGUACCGAAUCGGGUUUUUUUGGGUUUGGGAAAGGGAAAGUAUUAUGUUACGCCGUUCGGAUCUGCACUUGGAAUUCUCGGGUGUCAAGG,0.163
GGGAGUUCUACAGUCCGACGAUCAAUUCUCAUUUCUCGACAUAAAGCCUUGUCUAAAGUGAGAUGUUUUCCAGGUCAUACAUAGGUUUCUCCCUGGGGUAAUUGGAAGUUCUUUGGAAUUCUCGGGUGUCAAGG,-1.48
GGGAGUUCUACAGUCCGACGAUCACCAUGCAGGUGGGCAUCUUUGGGAAGUGGGGCAAGGGGGGGAUAGGGAGAAAGGUAACACUUUGGGAACAGGUGGUCCCAGGUCGUUUCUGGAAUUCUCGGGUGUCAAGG,0.837
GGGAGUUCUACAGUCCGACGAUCUCCUCAAGUCCUGUGCUACACAUCGUAUGUACCGAAUCGGGGUGGUGGGUGGAAAGUAUUAUGUUACGCCGUUCGGAUCUGCACUUCCAGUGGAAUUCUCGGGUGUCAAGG,0.677

# Set 2
# Target: Interferon regulatory factor 5, full length, phosphomimetic (IRF5, Homo sapiens, UniProt Q13568-2, residues 1-514, S451D/S453D/S456D/S462D)
# Technique: protein-binding microarray
# Form: double-stranded DNA, one strand shown
# Matrix: in vitro
# Tested at: 940 nM top
# Notes: 60-bp whole probe
# Together with: salmon DNA 0.4 mg/ml
# Relative to: random background probes
# Direction: higher = stronger binding
# Shared flanks, not repeated: GCCTAGCAC … GTGCTAGGTCTTGATTCGCTTGACGCTGCTG
Sequence,fitted relative affinity [z-score]
TTAGGTCTCCTTACCCTTTA,0.319
GACGATTCCAGTTTCGGGAC,4.64
TTAGGACTGCTTTTCCTATA,-0.00132
GACGAACTTAGTCTCGAGAC,1.25
GACGATCTCAGACTGGTGAC,-0.395

# Set 3
# Target: Centromere-binding protein 1, full length, His-tagged (CBF1, Saccharomyces cerevisiae, UniProt P17106, residues 1-351)
# UniProt P17106, sequence (whole entry, looked up): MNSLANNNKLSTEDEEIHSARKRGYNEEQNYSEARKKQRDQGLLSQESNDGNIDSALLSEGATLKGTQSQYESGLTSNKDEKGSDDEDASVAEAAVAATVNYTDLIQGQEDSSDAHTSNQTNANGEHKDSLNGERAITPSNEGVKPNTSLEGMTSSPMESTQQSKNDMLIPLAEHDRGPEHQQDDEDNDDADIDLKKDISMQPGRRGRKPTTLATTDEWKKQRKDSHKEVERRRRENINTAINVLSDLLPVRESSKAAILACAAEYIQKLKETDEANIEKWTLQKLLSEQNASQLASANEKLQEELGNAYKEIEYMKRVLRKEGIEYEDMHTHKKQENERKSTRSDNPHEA
# Technique: competition protein-binding microarray
# Form: double-stranded DNA, one strand shown
# Matrix: in vitro
# Tested at: 2 µM
# Notes: whole 60-bp probe, lowest competitor level
# Together with: Pho4 competitor, 0.05 µM
# Direction: higher = stronger binding
Sequence,fluorescence intensity
CGTCCTAGTGATTTTCACGTGCAATCCATGAGGAAGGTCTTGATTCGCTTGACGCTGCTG,883 a.u.
TCCCAAGGCCACCGTCACGATTGAAGGTTCCCGGTCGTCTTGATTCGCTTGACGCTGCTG,63.9 a.u.
GCCTCCGAAGATTGGGACGTGCCAGCGGAGCAAGTTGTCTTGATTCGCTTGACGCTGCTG,58 a.u.
AGACCAGATGGGGTCCACGTTATCAACGTTGGTAAGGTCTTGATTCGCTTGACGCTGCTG,92.8 a.u.
GTCTTGTCTCATTGTCACCCAACTTTCCCCACTTCAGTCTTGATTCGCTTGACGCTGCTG,89.1 a.u.

# Further values, each from its own experiment
Molecule,target,assay,system,conditions,scale,quantity,result
"PhoQ, residues 284 288 289 292 302 303 SLANIV","PhoP, residues 12 14 15 18 19 DLLYY (Escherichia coli, UniProt P23836)","Sort-seq, item: YFP reporter",E. coli,"PhoQ-PhoP variant library, together with: 10 µM Mg2+","relative to: high Mg2+ state, higher = stronger signaling",fold induction,1.31

# Some of these lines once more (set 3):
Sequence,fluorescence intensity
TCCCAAGGCCACCGTCACGATTGAAGGTTCCCGGTCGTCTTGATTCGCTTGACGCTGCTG,63.9 a.u.
GCCTCCGAAGATTGGGACGTGCCAGCGGAGCAAGTTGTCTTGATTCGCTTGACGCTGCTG,58 a.u.
